Assay results from different studies.
Each line is one published result; not all experiments were run side by side. ± gives the spread as reported.
DRD3: D(3) dopamine receptor (DRD3, Homo sapiens, UniProt P35462)
UniProt P35462, sequence (whole entry, looked up): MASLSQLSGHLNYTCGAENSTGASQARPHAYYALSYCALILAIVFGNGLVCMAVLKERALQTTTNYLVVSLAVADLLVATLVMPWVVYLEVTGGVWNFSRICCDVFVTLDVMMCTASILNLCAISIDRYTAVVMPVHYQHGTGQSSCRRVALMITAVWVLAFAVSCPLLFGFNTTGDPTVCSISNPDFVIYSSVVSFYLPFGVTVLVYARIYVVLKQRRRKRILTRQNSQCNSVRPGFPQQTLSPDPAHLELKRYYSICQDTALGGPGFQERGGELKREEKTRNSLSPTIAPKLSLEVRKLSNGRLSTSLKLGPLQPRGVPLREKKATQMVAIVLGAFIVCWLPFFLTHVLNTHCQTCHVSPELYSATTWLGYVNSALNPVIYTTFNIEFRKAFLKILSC

Structure (SMILES) = CC(C)[C@@H](CN1CC[C@@](C)(c2cccc(O)c2)[C@@H](C)C1)NC(=O)[C@H]1Cc2ccc(O)cc2CN1; test system = Sprague-Dawley rat, brain; setting = intraperitoneal, 3 mg/kg; measurement = half-life; value = 68.4 h
Structure (SMILES) = Cc1cc(-c2nccc3c2ccn3CC(=O)Nc2ccc(-c3cnccn3)cn2)ccn1; test system = healthy human volunteers; setting = oral, 40 mg single dose, single ascending dose; measurement = nervous system TEAEs; value = 16.7%
Structure (SMILES) = N#Cc1ccc2c(c1)[C@H]1CCCN(C(=O)c3ccc4[nH]cnc4c3)[C@H]1C2; test system = human, male; setting = 240 mg, day 15; measurement = DHEA-S level; value = 10 µmol/L
Structure (SMILES) = COc1ccc2c(=O)n(C)c(-c3ccccc3)nc2c1; test system = Sprague-Dawley rat, male, large intestine; setting = oral, 30 mg/kg, 0.5 h; measurement = concentration; value = 34.1 ng/mL
Structure (SMILES) = CC(C)(C)c1ccc(O)c(CN(Cc2cc(C(C)(C)C)ccc2O)C2CCC(NC(N)=O)CC2)c1 (stereo not drawn); test system = C57BL/6 mice, male, brain; setting = intraperitoneal, 10 mg/kg, single dose; measurement = dose-normalised Cmax; value = 107 ng/g per mg/kg
Structure (SMILES) = Cn1cc(-c2cn3nccc3c(-c3cnn([C@]4(CC#N)C[C@@H](C#N)C4)c3)n2)cn1; test system = healthy humans fed, plasma; setting = 400 mg once daily, day 10, geometric mean; measurement = average concentration; value = 226 ng/mL
Structure (SMILES) = Cn1nc([N+](=O)[O-])nc1Oc1ccccc1C(=O)N1CCOCC1; tested on = Cyclin-dependent kinase 2, with cyclin A (CDK2, Homo sapiens, UniProt P24941); measurement = Kd; value = > 100 µM
Structure (SMILES) = O=C1CCc2ccc(OCCCCN3CCN(c4cccc(Cl)c4Cl)CC3)cc2N1; assay = refers to: Tremor; test system = genotyped patients, CYP2D6 ultrarapid metabolizers; setting = dose not given, long-acting oral or depot; measurement = adverse event incidence; value = 13%
Structure (SMILES) = CC(C)(C(=O)N1CCOc2c(C#N)cncc2C1)C(F)F; assay = refers to: Headache; test system = human; setting = oral, 40 mg, CSF pharmacokinetic cohort; measurement = subjects with adverse event; value = 66.7%
Structure (SMILES) = COc1cc([N+](=O)[O-])ccc1NC(=O)CN1CCOCC1; tested on = Cyclin-dependent kinase 2 (CDK2, Homo sapiens, UniProt P24941); assay = binding; measurement = Kd; value = > 100 µM
Structure (SMILES) = CCn1cc(C(=O)N2CCOCC2)c(=O)c2cc(NC3Cc4ccccc4C3)cnc21; test system = human, fasted; setting = oral suspension, 50 mg single dose, arithmetic mean; measurement = AUC(0-last); value = 1400 ng·h/mL
Structure (SMILES) = N=C(N)NCCNC(=O)C1(Nc2ccccc2)CCN(Cc2ccccc2)CC1; test system = male Sprague-Dawley rats, plasma; setting = oral, 50 mg/kg; measurement = mean residence time; value = 0.3 h
Structure (SMILES) = Cc1ccc(O)c(-n2nc3ccccc3n2)c1; test system = human aged 16-21 years; setting = concentration not given, foundation, 95th percentile; measurement = daily dermal exposure dose; value = 427 ng/kg/day
Structure (SMILES) = CCN1/C(=C/C(C)=O)Sc2ccc(F)cc21; test system = cynomolgus monkey; setting = oral, 100 mg/kg, 4 h post-dose; measurement = QT interval; value = 262 ± 36 ms
Structure (SMILES) = CC(C)C[C@H](NC(=O)CNC(=O)c1cc(Cl)ccc1Cl)B(O)O; assay = refers to: Dyspnoea; test system = human newly diagnosed multiple myeloma; setting = oral, dose not given, maintenance, grade 3, onset cycle 17 or later; measurement = treatment-emergent adverse events; value = 0%
Structure (SMILES) = NC1(C(=O)N[C@@H](CCO)c2ccc(Cl)cc2)CCN(c2nc[nH]c3nccc2-3)CC1; test system = metastatic CRPC patients; setting = 480 mg b.i.d., grade 3 to 4, treatment-related, added: enzalutamide 160 mg daily; measurement = incidence of decreased appetite; value = 0%
Structure (SMILES) = Cn1cc(-c2ccc(-c3cncc(Cl)c3N3CCC4(CCNC4=O)CC3)cc2)cn1; tested on = COLO 205; assay = microarray, refers to: LGALS1; setting = concentration not given, 2 h, gene set Galectin-1; how to read = reference: untreated cells; measurement = fold change in expression; value = 3.43
Structure (SMILES) = Nc1nc(O)c2ncn(COC(CO)CO)c2n1; test system = Sprague-Dawley rat, male; setting = oral, 10 mg/kg; measurement = mean residence time; value = 2.28 ± 0.783 h
Structure (SMILES) = C[C@H]1O[C@@H](O[C@H]2[C@@H](O)C[C@H](O[C@H]3[C@@H](O)C[C@H](O[C@H]4CC[C@@]5(C)[C@H](CC[C@@H]6[C@@H]5C[C@@H](O)[C@]5(C)[C@@H](C7=CC(=O)OC7)CC[C@]65O)C4)O[C@@H]3C)O[C@@H]2C)C[C@H](O)[C@@H]1O; assay = refers to: general and administration site disorders; test system = healthy men; setting = oral, dose not given, 8 days, treatment-emergent, crossover trial; measurement = subjects with adverse event; value = 0%
Structure (SMILES) = O=C(O)CCC(=O)O.[2H]C([2H])([2H])Oc1cc(C)c2[nH]ccc2c1CN1CC[C@@H](C2CC2)C[C@H]1c1ccc(C(=O)O)cc1; test system = human, plasma; setting = 125 mg twice daily, day 10, multiple ascending dose, geometric mean; measurement = Cmax; value = 4680 ng/mL
Structure (SMILES) = CCc1cc(C(=O)NC)c2nccc(N3CCc4c(cc(Cn5ccnc5)cc4-c4cn(C)nc4C(F)(F)F)C3=O)c2c1; test system = Sprague Dawley rats; setting = oral, 100 mg/kg twice daily, 7 days; how to read = reference: vehicle; measurement = serum AST change; value = 13%
Structure (SMILES) = O=C(OC(C(F)(F)F)C(F)(F)F)N1CCN(Cc2cccc(Oc3ccccc3)c2)CC1; assay = PET blocking study; test system = rhesus monkey, brain OCC; setting = 0.3 mg/kg, compound pretreatment, added: [18F]T-401 tracer; measurement = Ktrans; value = 0.0078 min⁻¹
Structure (SMILES) = CN1C(=O)[C@@H](NC(=O)c2nnc(Cc3ccccc3)[nH]2)COc2cccnc21; assay = phase I single ascending dose; test system = human, male and female; setting = oral, 200 mg, fasted; measurement = participants with any TEAE; value = 16.7%
Structure (SMILES) = Cc1[nH]cc(C(=O)N2CCC(F)(F)C2)c1S(=O)(=O)Nc1ccc(C(F)(F)F)c(Cl)c1; tested on = DRD3; assay = β-arrestin recruitment, antagonist, PathHunter; setting = added: dopamine EC80; measurement = IC50; value = > 100 µM
Structure (SMILES) = Cn1cc(Nc2nccc(-c3ccc4c(c3)CN(C3COC3)CC[C@H]4NC(=O)c3cn(C(C)(C)C)nn3)n2)cn1; test system = human, whole blood; setting = 300 mg twice daily, day 14; how to read = reference: pre-dose baseline; measurement = transitional B cell count change; value = 13.6%
Structure (SMILES) = COc1ccc([C@@H](O)c2cc(-c3ncnc4cc(N5CCOCC5)ccc34)c(F)cc2Cl)nn1; test system = locally advanced rectal cancer; setting = all dose levels overall, added: capecitabine and radiotherapy; measurement = drug-related adverse events, investigations; value = 42%
Structure (SMILES) = CNCc1ccc(-c2[nH]c3cc(F)cc4c3c2CCNC4=O)cc1; test system = human patients; setting = oral, dose not given, all grades, all doses; measurement = incidence of AST/ALT increase; value = 25%
Structure (SMILES) = Cc1[nH]c(C)c(S(=O)(=O)Nc2ccc(C(F)(F)F)c(Cl)c2)c1C(=O)N1CCc2ccccc21; tested on = DRD3; assay = β-arrestin recruitment, antagonist, PathHunter; setting = added: dopamine EC80; measurement = IC50; value = > 100 µM
Structure (SMILES) = Cc1cc(-c2nnc(N)nc2-c2ccc(F)cc2)cc(Cl)n1; assay = refers to: hypothyroidism; test system = post-IO other solid tumour patients; setting = oral, 100 mg once daily, treatment-related, grade 1; measurement = patients with immune-mediated AE; value = 0%
Structure (SMILES) = COc1nnc2ccc(N3CCC(c4ccc(OCCN5CCN(C)C(=O)[C@H]5C)cc4)CC3)nn12; test system = patients, plasma; setting = oral, 20 mg twice daily, multiple dose, monotherapy; measurement = terminal half-life; value = 2.33 h
Structure (SMILES) = NC(CO)(CO)CCc1ccc(Sc2cccc(OCc3ccccc3)c2)cc1Cl; test system = human, supine; setting = oral, 3 mg, 0 to 24 h, alone; measurement = pulse rate AUEC, median; value = 1270 h×bpm
Structure (SMILES) = C[C@@H](Nc1cc(F)cc(F)c1)c1cc(C(=O)N(C)C)cc2c(=O)cc(N3CCOCC3)oc12; assay = refers to: Hydronephrosis; test system = advanced solid tumour patients; setting = oral, dose not given, dose finding; measurement = patients discontinuing for AE; value = 0%
Structure (SMILES) = Cc1ccc(C)c(OCCCC(C)(C)C(=O)O)c1; assay = refers to: Tmax; test system = human subjects, plasma; setting = oral, dose not given, added: lopinavir-ritonavir; how to read = reference: with over without lopinavir-ritonavir; measurement = geometric mean ratio; value = 0.95
Structure (SMILES) = CNCCOC12CC3(C)CC(C)(CC(Cn4ncc(-c5ccc(N6CCc7cccc(C(=O)Nc8nc9ccccc9s8)c7C6)nc5C(=O)O)c4C)(C3)C1)C2; test system = beagle dog, male, anaesthetised; setting = intravenous bolus, 0.03 mg/kg, 5 min; how to read = reference: baseline; measurement = dP/dt at 50 change; value = 13%
Structure (SMILES) = NC(=O)N1c2ccccc2C=Cc2ccccc21; assay = refers to: dry mouth; test system = human male; setting = oral, dose not given, CTCAE on-treatment AEs; measurement = adverse events incidence; value = 0%
Structure (SMILES) = Cc1ccc(Sc2ccccc2N2CCNCC2)c(C)c1; assay = refers to: Headache; test system = healthy adult men; setting = oral, 10 mg daily, 12 days; measurement = participants with TEAE; value = 0%
Structure (SMILES) = CC(=O)Nc1ccc(C[C@H](NC(=O)[C@H](CO)NC(=O)[C@@H](Cc2cccnc2)NC(=O)[C@@H](Cc2ccc(Cl)cc2)NC(=O)[C@@H](Cc2ccc3ccccc3c2)NC(C)=O)C(=O)N[C@H](Cc2ccc(NC(C)=O)cc2)C(=O)N[C@@H](CC(C)C)C(=O)N[C@@H](CCCCNC(C)C)C(=O)N2CCC[C@H]2C(=O)N[C@H](C)C(N)=O)cc1; test system = healthy men, fasted, serum; setting = oral, 20 mg single dose; measurement = terminal half-life; value = 9.2 ± 6.3 h
Structure (SMILES) = O=C(Nc1nc2cccc(-c3ccc(CN4CCS(=O)(=O)CC4)cc3)n2n1)C1CC1; assay = refers to: general and administration-site disorders; test system = rheumatoid arthritis patients; setting = oral, 75 mg once daily, 4 weeks, any relatedness; measurement = treatment-emergent adverse events; value = 4.5%
Structure (SMILES) = Nc1ncn([C@H]2C[C@H](O)[C@@H](CO)O2)c(=O)n1; test system = mouse plasma; setting = 1.2 ng/mL, 3 months, -80 °C, long-term stability, no THU; measurement = mean deviation from nominal; value = 12.9%
Structure (SMILES) = CNC(=O)c1cccc(-c2ccc(O[C@H]3O[C@H](CO)[C@@H](O)[C@H](O)[C@@H]3O)c(C)c2)c1; test system = male Sprague-Dawley rat, urine; setting = oral, 10 mg/kg, 24 h, mean; how to read = reference: dose; measurement = urinary recovery; value = 0.24%
Structure (SMILES) = C[C@H]1CN(C(=O)CC#N)[C@]12CCN(c1ncnc3[nH]ccc13)C2; test system = human; setting = oral, 1.5 mg single dose; measurement = participants with catheter site bruise; value = 12.5%
Structure (SMILES) = O=C(O)CCCCCCCCCCCCCCCCC(=O)O; test system = human, plasma; setting = endogenous baseline diurnal; how to read = reference: daily mean concentration; measurement = relative peak deviation; value = 27.1 ± 3.6%
Structure (SMILES) = O=C(N[C@H](Cc1c[nH]c2ccccc12)C(=O)Nc1ccncc1)c1ccc(N2CCN(c3ccc(F)cc3F)CC2)cc1F; test system = Swiss Webster mouse, female, heart; setting = oral, 50 mg/kg, 8 h, 20% Kolliphor vehicle; measurement = concentration; value = 12.6 µM
Structure (SMILES) = CC(=O)N(C)[C@H]1CCN(C(=O)c2cnc3c(c2)C[C@](C)(c2ccc(F)cc2)N3)C1; test system = human; setting = dose not given; measurement = creatine kinase-MB; value = 11.8 µg/L
Structure (SMILES) = C=CC(=O)N1CCC(c2ccc(C(N)=O)c(-c3ccc(Oc4ccccc4)cc3)n2)CC1; test system = relapsed/refractory mantle cell lymphoma patients; setting = oral, dose not given, phase 1/2 trial, CTCAE v4.03; measurement = incidence of serious pleural effusion; value = 0.9%

Repeated from above:
Structure (SMILES) = O=C(N[C@H](Cc1c[nH]c2ccccc12)C(=O)Nc1ccncc1)c1ccc(N2CCN(c3ccc(F)cc3F)CC2)cc1F; test system = Swiss Webster mouse, female, heart; setting = oral, 50 mg/kg, 8 h, 20% Kolliphor vehicle; measurement = concentration; value = 12.6 µM
Structure (SMILES) = CC(=O)N(C)[C@H]1CCN(C(=O)c2cnc3c(c2)C[C@](C)(c2ccc(F)cc2)N3)C1; test system = human; setting = dose not given; measurement = creatine kinase-MB; value = 11.8 µg/L
Structure (SMILES) = C=CC(=O)N1CCC(c2ccc(C(N)=O)c(-c3ccc(Oc4ccccc4)cc3)n2)CC1; test system = relapsed/refractory mantle cell lymphoma patients; setting = oral, dose not given, phase 1/2 trial, CTCAE v4.03; measurement = incidence of serious pleural effusion; value = 0.9%
